Experimental data from different studies.
Parts stem from different laboratories: compare values within a part only. Positions count from the first letter of the parent shown.

Block 1 — target: tungstate, free oxyanion; technique: microfluidic competitive inhibition; medium: in vitro, cell-free expressed; concentration: not given; direction: lower = stronger binding
Notes: derived from inhibition constants, unchanged parent 2230 nM
Parent: PafA, mature enzyme, eGFP fusion (Elizabethkingia meningoseptica, UniProt Q9KJX5); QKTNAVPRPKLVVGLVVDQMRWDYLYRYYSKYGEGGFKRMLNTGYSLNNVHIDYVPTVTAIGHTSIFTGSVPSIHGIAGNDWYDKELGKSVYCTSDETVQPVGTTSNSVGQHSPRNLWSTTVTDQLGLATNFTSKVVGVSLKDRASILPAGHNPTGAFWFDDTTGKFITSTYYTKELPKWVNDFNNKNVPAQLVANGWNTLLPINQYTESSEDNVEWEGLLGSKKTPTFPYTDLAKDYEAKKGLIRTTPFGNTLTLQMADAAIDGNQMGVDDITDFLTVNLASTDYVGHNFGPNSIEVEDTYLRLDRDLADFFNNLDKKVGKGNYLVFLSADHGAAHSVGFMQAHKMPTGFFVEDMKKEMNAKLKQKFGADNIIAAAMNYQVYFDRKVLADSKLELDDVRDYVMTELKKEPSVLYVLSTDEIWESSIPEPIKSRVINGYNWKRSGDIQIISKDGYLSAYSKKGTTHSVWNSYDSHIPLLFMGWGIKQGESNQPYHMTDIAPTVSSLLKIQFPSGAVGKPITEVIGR
Under “oxyanion analog dissociation constant”, `Q267G` is recorded as 2.25 µM.
`R434G`: “oxyanion analog dissociation constant” 1.28 µM.
`E176V` — result for “oxyanion analog dissociation constant”: 2.44 µM.
For `V99A`, “oxyanion analog dissociation constant” read 1.93 µM.
`K452G` — result for “oxyanion analog dissociation constant”: 1.39 µM.
Under “oxyanion analog dissociation constant”, `S426V` is recorded as 2.03 µM.
Under “oxyanion analog dissociation constant”, `I263V` is recorded as 2.13 µM.
`A331G` — result for “oxyanion analog dissociation constant”: 5.32 µM.

Block 2 — target: CCNE1, cyclin fold, Cln2 fusion (human); technique: yeast growth competition, sequencing; medium: yeast; notes: strong parent motif; relative to: not given; direction: higher = stronger binding
Parent: viral docking peptide; KGVKRKLFAEDSS; partner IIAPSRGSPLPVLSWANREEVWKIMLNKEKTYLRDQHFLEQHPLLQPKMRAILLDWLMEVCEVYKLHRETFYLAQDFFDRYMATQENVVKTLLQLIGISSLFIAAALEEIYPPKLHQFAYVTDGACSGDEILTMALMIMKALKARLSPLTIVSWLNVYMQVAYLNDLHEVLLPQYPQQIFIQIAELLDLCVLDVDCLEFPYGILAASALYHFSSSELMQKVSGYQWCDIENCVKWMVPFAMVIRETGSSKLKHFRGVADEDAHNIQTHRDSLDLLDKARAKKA
For `KGGKRKLFAEDSS [V3G]`, “normalised enrichment score” read 2.38.
`KGFKRKLFAEDSS [V3F]` — result for “normalised enrichment score”: 7.14.
Under “normalised enrichment score”, `KGVKRKLFHEDSS [A9H]` is recorded as 7.13.
`KGVKRKLSAEDSS [F8S]`: “normalised enrichment score” -0.284.
For `KGVKRKLFWEDSS [A9W]`, “normalised enrichment score” read 7.01.
`KGVKRKLFAEDTS [S12T]` — result for “normalised enrichment score”: 7.62.
`KGVKRKLFAERSS [D11R]` — result for “normalised enrichment score”: 6.24.
For `KGVKRLLFAEDSS [K6L]`, “normalised enrichment score” read 5.22.

Block 3 — read-out: binding; technique: phage display NGS; form: peptide; concentration: concentration not given; relative to: input library
Target: UDP-N-acetylglucosamine--peptide N-acetylglucosaminyltransferase 110 kDa subunit (OGT, Homo sapiens, UniProt O15294)
Chain of UniProt O15294 (whole entry, looked up): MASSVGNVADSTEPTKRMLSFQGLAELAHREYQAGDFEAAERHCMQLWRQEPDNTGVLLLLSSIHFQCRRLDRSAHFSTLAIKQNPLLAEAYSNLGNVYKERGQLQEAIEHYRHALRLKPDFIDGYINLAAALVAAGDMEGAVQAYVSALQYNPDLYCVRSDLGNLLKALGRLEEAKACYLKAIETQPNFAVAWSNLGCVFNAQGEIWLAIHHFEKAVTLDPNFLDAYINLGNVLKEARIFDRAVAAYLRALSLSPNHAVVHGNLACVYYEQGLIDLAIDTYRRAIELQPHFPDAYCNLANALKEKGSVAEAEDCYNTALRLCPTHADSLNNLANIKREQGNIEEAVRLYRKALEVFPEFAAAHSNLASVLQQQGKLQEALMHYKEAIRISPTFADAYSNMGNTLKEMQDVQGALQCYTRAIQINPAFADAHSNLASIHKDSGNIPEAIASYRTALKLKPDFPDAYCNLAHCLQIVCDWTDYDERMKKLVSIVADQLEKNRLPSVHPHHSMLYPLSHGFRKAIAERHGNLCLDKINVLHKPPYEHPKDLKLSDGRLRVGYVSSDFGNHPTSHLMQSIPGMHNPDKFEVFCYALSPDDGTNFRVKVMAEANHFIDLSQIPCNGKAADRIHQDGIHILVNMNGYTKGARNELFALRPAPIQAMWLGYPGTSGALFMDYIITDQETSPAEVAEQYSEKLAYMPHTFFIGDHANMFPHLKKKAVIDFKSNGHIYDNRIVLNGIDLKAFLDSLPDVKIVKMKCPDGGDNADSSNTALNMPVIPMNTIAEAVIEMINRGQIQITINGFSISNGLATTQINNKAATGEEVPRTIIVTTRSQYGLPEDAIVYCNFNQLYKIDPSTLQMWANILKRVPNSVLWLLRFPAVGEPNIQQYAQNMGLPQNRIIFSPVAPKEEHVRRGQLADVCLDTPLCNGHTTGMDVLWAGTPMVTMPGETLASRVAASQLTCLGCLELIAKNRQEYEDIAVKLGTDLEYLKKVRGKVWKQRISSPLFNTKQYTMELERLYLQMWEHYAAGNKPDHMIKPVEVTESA
Under “enrichment fold change”, `QFLPSYQIQVDLPHY` is recorded as 1.93.
Under “enrichment fold change”, `HQHQQPQQHVKWHKF` is recorded as 3.73.
Under “enrichment fold change”, `TAPFYPPAYQI` is recorded as 1.02.
For `WPHNWAYHGFDWHA`, “enrichment fold change” read 55.6.
Under “enrichment fold change”, `HQMHAHQLHRPSTKF` is recorded as 13.8.
`IERDNQYHPMYIIDI`: “enrichment fold change” 5.1.
`HQQHSMHFKWNIIQA` — result for “enrichment fold change”: 3.76.
For `HKHLMDRHDFMYMHA`, “enrichment fold change” read 8.12.

Further values, each from its own experiment
`CC(=O)OC[C@H]1O[C@@H]([S-])[C@H](OC(C)=O)[C@@H](OC(C)=O)[C@@H]1OC(C)=O.CCP(CC)CC.[Au+]` has an inhibition of 8.6% (chymotrypsin; enzyme activity, inhibitor; 10 µM, with DTT).
